Published values collected from several papers.
Each line is one published result; not all experiments were run side by side.

SMILES | cell line | test | setting | how to read | measurement | result
CO[C@@H]1C[C@@H](C[C@H]2CC[C@H](C)[C@H]([C@@H](C)C(=O)O)O2)O[C@]2(O[C@](C)([C@H]3CC[C@@](C)([C@@H]4O[C@@H]([C@H]5O[C@@](O)(CO)[C@H](C)C[C@@H]5C)C[C@@H]4C)O3)C[C@H]2C)[C@@H]1C | human iPSC-derived cardiac fibroblasts, reporter lines | antifibrotic reporter effect | doses, lower, re-examined at |  | EC50 | 5 nM
O=C(Nc1ccc(-c2ccnc(Nc3ccc(N4CCOCC4)cc3)n2)cc1)C1CCCN1 (stereo not drawn) | HEK293T ATF4-FLuc reporter | ATF4 reporter gene, activator, luciferase reporter |  |  | EC50 | 6530 nM
O=C(Cc1ccccc1)Nc1nnc(CCSCCc2nnc(NC(=O)Cc3ccccc3)s2)s1 | HCC38 | cell proliferation, inhibitor, cell counting | 144 h |  | EC50 | 4700 nM
CC(=O)c1ccc(-c2cccc(NC(=O)CCc3cccc4c3B(O)OC4)c2)cc1 | HeLa wild type | transcriptional read-through, RT-qPCR, item: SCARF1 read-through mRNA downstream of RILP |  | relative to: GAPDH | EC50 | 76 nM
O=C(NCCN1CCCC1)c1cc(-c2ccc(CN3CCOCC3)cc2)nc2ccc(F)cc12 | MRC-5 | cytotoxicity, resazurin |  |  | EC50 | 23000 nM
COc1cnc2cccc(N3CCc4c(cc(Cn5ccnc5C)cc4-c4cn(C)nc4C(F)(F)F)C3=O)c2c1 | Calu-1 | cell growth, inhibitor | 120 h |  | EC50 | > 30000 nM
C[C@H]1[C@H](OC(=O)CCC(=O)O)O[C@@H]2O[C@@]3(C)CC[C@H]4[C@H](C)CC[C@@H]1[C@@]24OO3 | human iPSC-derived cardiac fibroblasts, reporter lines | profibrotic reporter inhibition | 72 h, 7 doses up to 20 µM, together with: 5 ng/mL TGF-β1 |  | EC50 | 2100 nM
CC[C@H](C)[C@H](NC(=O)OCc1ccccc1)C(=O)N[C@@H](CCC(=O)OC(C)(C)C)C(=O)N[C@@H](C)C(=O)N[C@H](C=O)CC(C)C | HEK293T ATF4-FLuc reporter | ATF4 reporter gene, activator, luciferase reporter |  |  | EC50 | 43.1 nM
Nc1ccc(O)cc1 | THP-1 | pyroptotic LDH release | 2 µM, 40 min, together with: LPS then nigericin |  | inhibition | 10.8%
NC(=O)c1ccc(-c2nc(-c3ccc4c(c3)OCO4)c(-c3ccccn3)[nH]2)cc1 | human iPSC-derived cardiac fibroblasts, reporter lines | profibrotic reporter inhibition | 72 h, 7 doses up to 20 µM, together with: 5 ng/mL TGF-β1 |  | EC50 | 1500 nM
Cc1cccc(C(=O)O)c1 | THP-1 | pyroptotic LDH release | 2 µM, 40 min, together with: LPS then nigericin |  | inhibition | -5.85%
C=C[C@@]1(C)CC(=O)[C@]2(O)[C@@]3(C)[C@@H](O)CCC(C)(C)[C@@H]3[C@H](O)[C@H](OC(C)=O)[C@@]2(C)O1 | HEK293T ATF4-FLuc reporter | ATF4 reporter gene, activator, luciferase reporter |  |  | EC50 | 217 nM
CCn1cc(-c2cc(Cn3ccnc3)cc3c2CCN([C@H](c2cc(OC)ccn2)C2CC2)C3=O)c(C(F)(F)F)n1 | Calu-1 | cell growth, inhibitor | 120 h |  | EC50 | 86.5 nM
O=c1[nH]nnc2c1ncn2[C@@H]1O[C@H](CO)[C@@H](O)[C@H]1O | HEK293T ATF4-FLuc reporter | ATF4 reporter gene, activator, luciferase reporter |  |  | EC50 | 1380 nM
Cc1ncc([N+](=O)[O-])n1CCO | Escherichia coli expressing YfkO_Bs nitroreductase | growth inhibition, substrate, OD600 | 4 h |  | EC50 | 172000 nM

Repeated from above:
SMILES | cell line | test | setting | how to read | measurement | result
CC[C@H](C)[C@H](NC(=O)OCc1ccccc1)C(=O)N[C@@H](CCC(=O)OC(C)(C)C)C(=O)N[C@@H](C)C(=O)N[C@H](C=O)CC(C)C | HEK293T ATF4-FLuc reporter | ATF4 reporter gene, activator, luciferase reporter |  |  | EC50 | 43.1 nM
O=C(Cc1ccccc1)Nc1nnc(CCSCCc2nnc(NC(=O)Cc3ccccc3)s2)s1 | HCC38 | cell proliferation, inhibitor, cell counting | 144 h |  | EC50 | 4700 nM
